Results from different studies.
Every numbered part comes from another study and shows a few of its results, in no order. Changes are numbered by the printed parent chain.

Series 1
Target: Sal-like protein 4, full length isoform A (SALL4, Homo sapiens, UniProt Q9UJQ4, residues 1-1053)
UniProt Q9UJQ4, sequence (whole entry, looked up): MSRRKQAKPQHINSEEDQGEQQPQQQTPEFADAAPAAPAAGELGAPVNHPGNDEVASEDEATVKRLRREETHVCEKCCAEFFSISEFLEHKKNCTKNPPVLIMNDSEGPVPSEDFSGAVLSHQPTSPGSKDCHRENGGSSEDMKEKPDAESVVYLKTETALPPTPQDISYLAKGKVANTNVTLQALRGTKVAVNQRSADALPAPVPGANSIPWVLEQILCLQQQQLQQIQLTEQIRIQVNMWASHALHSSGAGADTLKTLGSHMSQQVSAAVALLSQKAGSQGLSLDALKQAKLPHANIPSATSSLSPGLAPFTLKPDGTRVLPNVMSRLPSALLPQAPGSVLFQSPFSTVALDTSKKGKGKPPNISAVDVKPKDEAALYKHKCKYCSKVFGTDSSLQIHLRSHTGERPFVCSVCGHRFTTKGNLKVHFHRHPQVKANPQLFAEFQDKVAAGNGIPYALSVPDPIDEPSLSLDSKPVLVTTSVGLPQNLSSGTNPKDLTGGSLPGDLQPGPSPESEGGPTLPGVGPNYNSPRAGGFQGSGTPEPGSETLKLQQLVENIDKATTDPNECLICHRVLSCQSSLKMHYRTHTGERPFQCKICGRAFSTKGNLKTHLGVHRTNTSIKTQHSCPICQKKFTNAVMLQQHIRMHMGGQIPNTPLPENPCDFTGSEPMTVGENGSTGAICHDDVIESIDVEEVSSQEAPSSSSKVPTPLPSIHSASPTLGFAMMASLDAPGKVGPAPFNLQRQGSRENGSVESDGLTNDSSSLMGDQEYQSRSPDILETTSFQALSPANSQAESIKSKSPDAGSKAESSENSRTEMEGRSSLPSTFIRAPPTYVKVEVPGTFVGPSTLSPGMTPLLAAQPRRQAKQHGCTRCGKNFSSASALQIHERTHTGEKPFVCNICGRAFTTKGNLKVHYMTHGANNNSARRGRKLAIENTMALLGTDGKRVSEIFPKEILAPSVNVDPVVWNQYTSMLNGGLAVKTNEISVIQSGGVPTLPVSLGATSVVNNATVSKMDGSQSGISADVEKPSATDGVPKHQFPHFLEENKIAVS
Technique: universal PBM
Molecule type: double-stranded DNA, one strand shown
Medium: in vitro
Concentration: 600 nM
Notes: 8-mer, flanks averaged, mean of replicates
Direction: higher = stronger binding
`GATAAGGC` gave an E-score of 0.0304.
For `ATCCAGGG`, the E-score was -0.176.
`CCATAAAA` has an E-score of 0.301.
The E-score of `AGACAGCT` is reported as -0.106.
For `CTAGGTGA`, the E-score was -0.186.
For `CCAAAACA`, the E-score was 0.152.
`AAGCGAGC` has an E-score of -0.113.
`CAGACAAA` has an E-score of 0.0498.
With `CGTATGAG` the E-score was 0.0642.
With `GGTGAGGA` the E-score was -0.0806.
With `AGAAACAA` the E-score was 0.29.
The E-score of `AGTCATTC` is reported as 0.107.
The E-score of `GATGCTCC` is reported as -0.224.
The E-score of `AGGTTGGA` is reported as 0.00419.
With `AAGCTTCC` the E-score was 0.0361.
`CAAGTGTC` has an E-score of -0.0145.
For `AGAGACTA`, the E-score was 0.0246.
`GGACCTGA` gave an E-score of -0.204.
`ACCGTAAA` gave an E-score of 0.154.
The E-score of `ATCGCAAG` is reported as -0.108.

Series 2
Target: RNA binding protein fox-1 homolog 2, RRM domain, GST-SBP tag (RBFOX2, Homo sapiens, UniProt O43251-10, residues 100-194)
Technique: RNA Bind-n-Seq
Molecule type: RNA
Medium: in vitro
Concentration: 365 nM
Notes: natural RNA segment, single round, ends assumed
Reference: no-protein control
Direction: higher = stronger binding
Construct (chain): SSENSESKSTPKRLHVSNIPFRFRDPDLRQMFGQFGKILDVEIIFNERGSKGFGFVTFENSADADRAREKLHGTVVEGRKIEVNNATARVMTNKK
For `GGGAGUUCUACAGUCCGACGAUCCACUGUGUGUGUGAUCAUGCUGGGAGGGGUAACUGCUUGGAAUUAAAAGGUUGCACUGGGUCCCUAAUCUAUUGUUUCUAUCCAUGCCUGUGCAUAUCAGACAAGCACUGUGGAAUUCUCGGGUGCCAA`, “RBNS enrichment (R)” read 0.584.
For `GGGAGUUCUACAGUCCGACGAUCGGGAAAGGGCUUUAUUCUUAUAAGAGUCUGGCCUGUCUUAACUAGAAGACGGGUAGGAAGGAUACUAGGUAGGCAGCGUUGCUGAACAAUCUAAGUUGUGGUUCUUAGCCUGGAAUUCUCGGGUGCCAA`, “RBNS enrichment (R)” read 0.234.
Under “RBNS enrichment (R)”, `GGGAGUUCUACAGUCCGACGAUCACGUCUUCAUUCAUUGGAGUAACUGGUUUAGGCUUUCCAGUUUGGAAAAGGAGCAGAGAGCUGUCCAUCUGGAUUGAUGGAAGAAAAGAGAACCUCAUCCAUGCCUGGAGUGGAAUUCUCGGGUGCCAA` is recorded as 0.284.
`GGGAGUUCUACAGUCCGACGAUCAGUUUUAAGAUCAACCAAUAGAUAUAUAUCCUACAAUUGAUAUAUUGCUUUAUUCACACUUUUAUUGUGGCUGAAUUUUUGUGCCUAUCUAUAAAACACACUUUCAAAUUUGGAAUUCUCGGGUGCCAA`: “RBNS enrichment (R)” 0.482.
Under “RBNS enrichment (R)”, `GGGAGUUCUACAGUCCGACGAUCGGCUUUUAUGAUUCCAGUCUGCUGGUAUGAAGCAGAGCAUCAAAAAAAAUUCGUGAUUCCUUGAGUGUCCACACGUUUUGUCUUUGGGGGUUAAGGGUUGGGAUUUUGGGUGGAAUUCUCGGGUGCCAA` is recorded as 0.69.
`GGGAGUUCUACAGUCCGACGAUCGGGUAGUCCACUCAUAUUCUUGCAGGGUGAGUCCAUGCUCAGGAGAAUGCGGUCCACCUUUCUAUGUACUCUAGCUUCCCUCUCUUCAGGUUGAUAUAGCGACAUUACCUUGGAAUUCUCGGGUGCCAA`: “RBNS enrichment (R)” 0.641.
`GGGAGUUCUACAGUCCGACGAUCAAGACCUAUUUAAUAAUUGGUGCAUAAAUGAAAGUAGUACUGUAUACUUGAAACUGUUUAAGUACAAGUUGAACAAAAAUUAUGAAAAGGUAUAUUUGCUUCUCGGGAAAUGGAAUUCUCGGGUGCCAA` — result for “RBNS enrichment (R)”: 0.586.
For `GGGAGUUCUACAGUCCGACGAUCAUCCAAACUGGUUUGUUAAAAACUCUAGGUCACAUUCUUACACUAAGAAAAACAGUUAACAUGAGACAAAGUUUAGGAAAAACUAAUAAAAGAAACCUGUCUUAACUUGAUGGAAUUCUCGGGUGCCAA`, “RBNS enrichment (R)” read 0.305.

Series 3
Target: RING finger protein unkempt homolog, zinc fingers 1-6, GST-SBP tag (UNK, Homo sapiens, UniProt Q9C0B0, residues 30-357)
UniProt Q9C0B0, sequence (30-357, looked up): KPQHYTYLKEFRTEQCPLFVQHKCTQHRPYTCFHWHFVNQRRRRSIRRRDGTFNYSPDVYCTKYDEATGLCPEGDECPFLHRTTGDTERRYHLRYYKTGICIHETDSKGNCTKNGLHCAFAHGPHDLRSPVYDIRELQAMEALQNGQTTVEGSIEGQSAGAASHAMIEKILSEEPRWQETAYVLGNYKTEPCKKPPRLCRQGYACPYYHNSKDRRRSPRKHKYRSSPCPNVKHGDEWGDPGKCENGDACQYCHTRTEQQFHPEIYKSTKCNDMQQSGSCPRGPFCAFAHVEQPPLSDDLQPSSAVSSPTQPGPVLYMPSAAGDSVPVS
Technique: RNA Bind-n-Seq
Molecule type: RNA
Medium: in vitro
Concentration: not given
Notes: RNA with constant flanks, human and mouse sites, ends assumed
Reference: input RNA pool
Direction: higher = stronger binding
`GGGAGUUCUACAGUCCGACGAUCAGCCCAGUGAAUGGAAAACUUUCCGUGACUAAACCUGUCCUACAAAGUACCAUGAGAAAUGUCGGUUCAGAUAUUGCUGUGCUAAGGAGACAGCAACGUAUGAUAAAAAAUCGAGAAUCCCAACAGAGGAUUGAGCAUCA` has a bound/input enrichment of 0.141 ratio.
With `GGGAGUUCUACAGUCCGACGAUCGGGCAGUUUGCGUUCCAUGUUGGUCUUCCUGCAAAAUCUGGAGUUGCUGGGGGUAUUCUUUUAGUUGUCCCCAACGUCAUGGGCAUGAUGUGUUGGUCUCCUCCUCUUGACAAGAUGGGCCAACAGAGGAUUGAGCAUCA` the bound/input enrichment was 0.269 ratio.
`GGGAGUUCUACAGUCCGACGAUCCUGGGUUGGCAAUUGACUGGUCAAGAAACCCAUGAGUUACAAAUGUGUUUGAAACAAAUAAUUAGAAACAUAAAAUUCAAAAUGCCCCAAUAUAGCACUUUUGGGGAUUCAACUUCUACACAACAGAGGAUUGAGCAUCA` gave a bound/input enrichment of 1.87 ratio.
`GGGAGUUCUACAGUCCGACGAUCGCAGGAAAAACGAAAUUACUUGCAAUUAUGCCAGAUGAGCUGAAGCACAUUAUUGGGGCUGAGACAACACGGAAAGGUAUUCUUCGUGUUUUUGAAAUGUUUCAGCACAACCAAUUAAAUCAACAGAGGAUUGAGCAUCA` gave a bound/input enrichment of 0.2 ratio.
For `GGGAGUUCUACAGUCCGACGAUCUCAGCCAUUGGUGUGCACUCAUCUUUAGCACCAUUGGUGAAAAUUCUCGAGAGCUGUGGAAUAGAGUCAAAGAUUGAGCCAGAAGUCAAUGACUCCCUGGGGGUUUACUGCAUUGAUGCCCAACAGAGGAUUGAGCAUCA`, the bound/input enrichment was 0.345 ratio.
The bound/input enrichment of `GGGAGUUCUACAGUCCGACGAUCAUCCAUGCUGCAUCUUUGAAGCUGCUACAGGACCAAGGACUGAAUAUUCCAAGUGUUGUUAAUUUUCAGAUAAUCUCCACCUACAAGCAUAUGAAGCUGCACAAGAUGCUUGAAAAUACACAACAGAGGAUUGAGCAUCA` is reported as 0.125 ratio.
`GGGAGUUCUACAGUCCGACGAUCCACAAUUGCUCUUACAAUUACAAAGCUGAUGCUGCUGAGAAAAUCAGAAAAGAAAAUCCAGUAGUUGUUGGUGAAAAGAUCCAGAAGAUUUGAACUCCUGCUGGAAUACAAAAUCCUUUGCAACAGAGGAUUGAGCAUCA` gave a bound/input enrichment of 0.132 ratio.
With `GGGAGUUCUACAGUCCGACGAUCAAGAAUCUGAGGACCCGACACCUACAAAUUUGCCGUUAUUCCCACUUCUUGAUGAAGGAAUAGCUAGAUGAACAAAGUGUUCUGCAGAGGCCUUUUAUGUGUUUAUGUGGUCCUCAAAGACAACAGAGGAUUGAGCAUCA` the bound/input enrichment was 0.353 ratio.

Series 4
Target: ABI1, truncated, D143A, DHFR fusion (Arabidopsis thaliana)
Technique: DHFR PCA, deep sequencing
Medium: yeast
Notes: methotrexate growth selection, single substitutions
Added: (+)-ABA 200 µM
Reference: wild-type fitted maximum
Direction: higher = stronger binding
Starting sequence: PYL1, truncated, DHFR fusion (Arabidopsis thaliana); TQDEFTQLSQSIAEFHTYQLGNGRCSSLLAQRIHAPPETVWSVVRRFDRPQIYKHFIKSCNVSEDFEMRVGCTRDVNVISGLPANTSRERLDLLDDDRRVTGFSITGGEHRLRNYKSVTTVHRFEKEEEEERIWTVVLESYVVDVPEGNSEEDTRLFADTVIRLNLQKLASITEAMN
`T73M`: “relative binding score” 107%.
`E152W` — result for “relative binding score”: 89.4%.
Under “relative binding score”, `A30R` is recorded as 102%.
`Q167C` — result for “relative binding score”: 90%.
`C25T` — result for “relative binding score”: 103%.
`G23Q` — result for “relative binding score”: 88.5%.
`E127R` — result for “relative binding score”: 105%.
Under “relative binding score”, `I33C` is recorded as 90.8%.
Under “relative binding score”, `T119D` is recorded as 9.58%.
`T160I` — result for “relative binding score”: 75.9%.
`T120N` — result for “relative binding score”: -0.131%.
For `A84W`, “relative binding score” read 66.3%.
Under “relative binding score”, `N77H` is recorded as 107%.
Under “relative binding score”, `G71H` is recorded as 69.4%.
`T86M`: “relative binding score” 94%.
`I172R`: “relative binding score” 71.8%.
`R111N` — result for “relative binding score”: 85.2%.

A few entries again (series 2):
For `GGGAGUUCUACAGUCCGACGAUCAUCCAAACUGGUUUGUUAAAAACUCUAGGUCACAUUCUUACACUAAGAAAAACAGUUAACAUGAGACAAAGUUUAGGAAAAACUAAUAAAAGAAACCUGUCUUAACUUGAUGGAAUUCUCGGGUGCCAA`, “RBNS enrichment (R)” read 0.305.
Under “RBNS enrichment (R)”, `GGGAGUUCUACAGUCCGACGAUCGGCUUUUAUGAUUCCAGUCUGCUGGUAUGAAGCAGAGCAUCAAAAAAAAUUCGUGAUUCCUUGAGUGUCCACACGUUUUGUCUUUGGGGGUUAAGGGUUGGGAUUUUGGGUGGAAUUCUCGGGUGCCAA` is recorded as 0.69.
`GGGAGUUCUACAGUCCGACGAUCAGUUUUAAGAUCAACCAAUAGAUAUAUAUCCUACAAUUGAUAUAUUGCUUUAUUCACACUUUUAUUGUGGCUGAAUUUUUGUGCCUAUCUAUAAAACACACUUUCAAAUUUGGAAUUCUCGGGUGCCAA`: “RBNS enrichment (R)” 0.482.
Under “RBNS enrichment (R)”, `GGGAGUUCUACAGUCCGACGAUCACGUCUUCAUUCAUUGGAGUAACUGGUUUAGGCUUUCCAGUUUGGAAAAGGAGCAGAGAGCUGUCCAUCUGGAUUGAUGGAAGAAAAGAGAACCUCAUCCAUGCCUGGAGUGGAAUUCUCGGGUGCCAA` is recorded as 0.284.
For `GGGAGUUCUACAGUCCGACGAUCGGGAAAGGGCUUUAUUCUUAUAAGAGUCUGGCCUGUCUUAACUAGAAGACGGGUAGGAAGGAUACUAGGUAGGCAGCGUUGCUGAACAAUCUAAGUUGUGGUUCUUAGCCUGGAAUUCUCGGGUGCCAA`, “RBNS enrichment (R)” read 0.234.
`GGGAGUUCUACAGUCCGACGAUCGGGUAGUCCACUCAUAUUCUUGCAGGGUGAGUCCAUGCUCAGGAGAAUGCGGUCCACCUUUCUAUGUACUCUAGCUUCCCUCUCUUCAGGUUGAUAUAGCGACAUUACCUUGGAAUUCUCGGGUGCCAA`: “RBNS enrichment (R)” 0.641.
